Measurements of several laboratories.
Numbered parts are unrelated; each lists some results of a single study.

Study 1
Target: Prothrombin, mature alpha-thrombin (F2, Homo sapiens, UniProt P00734)
Technique: aptamer microarray, sandwich
Form: DNA with 2'F-ANA
Medium: in vitro
Concentration: 200 nM
Notes: whole 15-mer aptamer, many near background
Added: Cy3 exosite-II aptamer, 400 nM
Direction: higher = stronger binding
Strand | mean fluorescence intensity [a.u.]
GGTTGGTGTGGTTGG (2'F-ANA at 4 5 8 9 12 13 14) | 81.2
GGTTGGTGTGGTTGG (2'F-ANA at 10 13 15) | 168
GGTTGGTGTGGTTGG (2'F-ANA at 3 6 8 9 12 15) | 1130
GGTTGGTGTGGTTGG (2'F-ANA at 1 2 8 12 14) | 115

Study 2
Target: Interferon regulatory factor 3, full length, phosphomimetic (IRF3, Homo sapiens, UniProt Q14653, residues 1-427, S386D/S396D/S398D/S402D/T404D/S405D)
Chain of UniProt Q14653 (whole entry, unmodified, looked up): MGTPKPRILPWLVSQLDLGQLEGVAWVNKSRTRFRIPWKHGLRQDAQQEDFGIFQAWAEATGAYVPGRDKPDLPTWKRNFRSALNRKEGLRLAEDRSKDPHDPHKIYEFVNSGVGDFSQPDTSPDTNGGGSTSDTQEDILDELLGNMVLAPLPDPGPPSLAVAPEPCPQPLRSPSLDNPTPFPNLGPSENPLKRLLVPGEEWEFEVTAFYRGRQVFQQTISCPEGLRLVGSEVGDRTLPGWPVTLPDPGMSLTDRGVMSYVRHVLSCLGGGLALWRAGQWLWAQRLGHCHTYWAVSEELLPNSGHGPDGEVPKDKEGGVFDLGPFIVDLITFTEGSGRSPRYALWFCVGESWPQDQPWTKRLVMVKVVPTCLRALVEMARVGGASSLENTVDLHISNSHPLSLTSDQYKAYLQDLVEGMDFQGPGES
Technique: protein-binding microarray
Form: double-stranded DNA, one strand shown
Medium: in vitro
Concentration: 2540 nM top
Notes: 60-bp whole probe
Added: salmon DNA 0.4 mg/ml
Baseline: random background probes
Direction: higher = stronger binding
Strand | fitted relative affinity [z-score]
GCCTAGCACTCAAGCTTCTTTTTTATACTGTGCTAGGTCTTGATTCGCTTGACGCTGCTG | 0.427
GCCTAGCACGACGCTATCGGGTATCGGGACGTGCTAGTCTTGATTCGCTTGACGCTGCTG | 0.331
GCCTAGCACTTAGGACGGCTACTGCTTTAGTGCTAGGTCTTGATTCGCTTGACGCTGCTG | -0.903
GCCTAGCACGACGAACTGGGGTACCGAGACGTGCTAGTCTTGATTCGCTTGACGCTGCTG | -0.262

Study 3
Target: Fragile X messenger ribonucleoprotein 1, C-terminal low-complexity region (Fmr1, Mus musculus, UniProt P35922)
Technique: RNA Bind-n-Seq
Form: RNA
Medium: in vitro
Concentration: 200 nM
Notes: whole 134-nt RNA, ends assumed
Added: 150 mM LiCl
Baseline: input library
Direction: higher = stronger binding
Library: 7-deaza-guanosine replaces G
All sequences stand within: GGGAGUUCUACAGUCCGACGAUC … UGGAAUUCUCGGGUGUCAAGG
Strand | log2 enrichment
AGUCCUGUGCUACACAUCGUAUGUACCGAAUCAAAUUUUUAAAUUUAAACCCCCAAAAAAGUAUUAUGUUACGCCGUUCGGAUCUGCACU | 0.0933
UCCUGUGCUACACAUCGUAUGUACCGAAUCGGAAAAAAGGGGAAAAAAGGGGAAAAAAGGAAAGUAUUAUGUUACGCCGUUCGGAUCUGC | -0.79
GUCCUGUGCUACACAUCGUAUGUACCGAAUCGGGUUUUUUUGGGAGGGAAAAAAAGGGAAAGUAUUAUGUUACGCCGUUCGGAUCUGCAC | -1.57
CCUCAAGUCCUGUGCUACACAUCGUAUGUACCGAAUCGGGCGGGCGGGCGGGGAAAGUAUUAUGUUACGCCGUUCGGAUCUGCACUUCCA | -1.04
UCAAGUCCUGUGCUACACAUCGUAUGUACCGAAUCGGGAAAGGGAAAGGAAAGGGAAAGUAUUAUGUUACGCCGUUCGGAUCUGCACUUC | -0.959
UCUUGUAUGACUUAACCCCUGUUUCUAAUACAGGGGCCGCUCUCCUCAGCCUCCUGCUGAAGAGGAUGAAGAUGACUUUGAUGAUACCCU | -0.587
UGGCCCUGGUGGCAUGCGGGGAGGAAGAGGUGGCCUCAUGGAUCGUGGUGGUCCCGGUGGAAUGUUCAGAGGUGGCCGUGGUGGAUACAG | -0.269

Mixed results
Substance | target | test | system | conditions | how to read | measurement | result
PhoQ, residues 284 288 289 292 302 303 TSTLRA | PhoP, residues 12 14 15 18 19 NNFVT (Escherichia coli, UniProt P23836) | Sort-seq, measured: YFP reporter | E. coli | PhoQ-PhoP variant library, added: 10 µM Mg2+ | baseline: high Mg2+ state, higher = stronger signaling | fold induction | 10.1

Some of these lines once more (study 1):
Strand | mean fluorescence intensity [a.u.]
GGTTGGTGTGGTTGG (2'F-ANA at 3 6 8 9 12 15) | 1130
GGTTGGTGTGGTTGG (2'F-ANA at 1 2 8 12 14) | 115
